Measured values from different studies.
Every numbered part comes from another study and shows a few of its results, in no order. Positions count from the first letter of the parent shown.

Set 1 — technique: DHFR PCA, dose-response; matrix: yeast; notes: Hill fit, mean, not affinity; with: (+)-ABA, dose series; direction: lower = more sensitive
Target: ABI1, truncated, D143A, DHFR fusion (Arabidopsis thaliana, UniProt P49597)
Starting sequence: PYL1, truncated, DHFR fusion (Arabidopsis thaliana, UniProt Q8VZS8); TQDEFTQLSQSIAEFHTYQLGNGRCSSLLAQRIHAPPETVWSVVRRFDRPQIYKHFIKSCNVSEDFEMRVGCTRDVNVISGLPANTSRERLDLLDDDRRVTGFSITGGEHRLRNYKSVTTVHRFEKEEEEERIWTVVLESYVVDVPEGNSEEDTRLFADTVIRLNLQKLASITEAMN
| Substitution | ABA EC50 [µM] |
| --- | --- |
| R163D | 129 |
| D95L | 29.6 |
| R98N | 3.63 |
| S11Q | 1.21 |
| I52E | 3.53 |
| P146W | 330 |
| H34I | 6.55 |
| V70G | 64 |

Set 2 — technique: competition protein-binding microarray; form: double-stranded DNA, one strand shown; matrix: in vitro; concentration: 2 µM; with: Pho4 competitor, 0.05 µM; direction: higher = stronger binding; shared flanks, not repeated: … GTCTTGATTCGCTTGACGCTGCTG
Target: Centromere-binding protein 1, full length, His-tagged (CBF1, Saccharomyces cerevisiae, UniProt P17106, residues 1-351)
Chain of UniProt P17106 (whole entry, looked up): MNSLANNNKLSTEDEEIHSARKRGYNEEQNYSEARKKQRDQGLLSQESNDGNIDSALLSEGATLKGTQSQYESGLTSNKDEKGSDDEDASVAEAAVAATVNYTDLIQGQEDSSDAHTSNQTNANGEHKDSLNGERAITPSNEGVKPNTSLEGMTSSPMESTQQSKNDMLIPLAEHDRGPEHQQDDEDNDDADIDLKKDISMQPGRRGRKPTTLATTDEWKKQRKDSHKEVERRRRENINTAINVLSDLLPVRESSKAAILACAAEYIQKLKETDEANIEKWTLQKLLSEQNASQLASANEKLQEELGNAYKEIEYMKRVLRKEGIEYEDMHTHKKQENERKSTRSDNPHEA
Notes: whole 60-bp probe, lowest competitor level
| Oligonucleotide | fluorescence intensity |
| --- | --- |
| CTTTCCCGATCTTGGGCGGTGGGTGTAGCACATTTG | 64.4 a.u. |
| GTCTTGTCTCATTGCTGTGTGGGTGTCCCCACTTCA | 90.6 a.u. |
| AAATTACTAAGTTGGTATGTGGGTGACGCCGTATGA | 71.5 a.u. |
| TAGGCGCAGACCGCGCTCGTGAAGCAGACCTCCCGG | 61.3 a.u. |
| ATCCTCTAACGCTTCTACCACCGTCTCTTCTACGAT | 57.7 a.u. |
| AGGCAGGCGAACATCAACGTGATGGTTACCAACAGC | 256 a.u. |
| TGCGCAACAACTTGCACAGTGGGTGTATGTCTAGAA | 70.4 a.u. |
| CGTCCTAGCGATTCGCACGTGTTTTCCATGAGGAAG | 1090 a.u. |

Other studies, line by line
P1: viral docking peptide; TSVRRALFTGGSD; partner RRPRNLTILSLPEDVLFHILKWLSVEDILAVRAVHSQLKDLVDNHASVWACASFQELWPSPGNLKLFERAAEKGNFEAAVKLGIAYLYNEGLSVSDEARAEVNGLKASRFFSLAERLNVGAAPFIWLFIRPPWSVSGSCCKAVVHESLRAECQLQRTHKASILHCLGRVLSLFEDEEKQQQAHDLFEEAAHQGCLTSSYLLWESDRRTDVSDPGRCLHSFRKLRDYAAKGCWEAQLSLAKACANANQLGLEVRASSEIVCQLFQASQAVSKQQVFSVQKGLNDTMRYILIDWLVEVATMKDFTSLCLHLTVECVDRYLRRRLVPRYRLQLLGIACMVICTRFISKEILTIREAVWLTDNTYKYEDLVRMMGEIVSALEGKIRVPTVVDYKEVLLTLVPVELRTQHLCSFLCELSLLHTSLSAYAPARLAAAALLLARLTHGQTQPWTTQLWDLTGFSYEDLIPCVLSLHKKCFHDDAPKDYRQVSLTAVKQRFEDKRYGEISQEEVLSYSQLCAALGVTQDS
| Substance | target or system | assay | test system | setting | scale | quantity | value |
| --- | --- | --- | --- | --- | --- | --- | --- |
| MTA2 (Homo sapiens, UniProt O94776) | HDAC1 (Homo sapiens, UniProt Q13547) | cross-linking MS | cell fractions | with: DSSO |  | cross-linked residues | K71 to K220 |
| P1 S2E | CCNF, cyclin fold, Cln2 fusion (human) | yeast growth competition, sequencing | yeast | strong parent motif | relative to: not given, higher = stronger binding | normalised enrichment score | 7.22 |
| P4HA2 (Homo sapiens, UniProt O15460) | P4HB (Homo sapiens, UniProt P07237) | cross-linking MS | cell fractions | with: DSSO |  | cross-linked residues | K300 to K409 |

For quick reference, copied from above (set 2):
| Oligonucleotide | fluorescence intensity |
| --- | --- |
| CTTTCCCGATCTTGGGCGGTGGGTGTAGCACATTTG | 64.4 a.u. |
| GTCTTGTCTCATTGCTGTGTGGGTGTCCCCACTTCA | 90.6 a.u. |
| AAATTACTAAGTTGGTATGTGGGTGACGCCGTATGA | 71.5 a.u. |
